Experimental data of several laboratories.
A part holds a random share of what one study measured. Substitutions count along the parent as printed.

Sample 1
Target: CCND1, cyclin fold, Cln2 fusion (human)
Technique: yeast growth competition, sequencing
Medium: yeast
Setting: weak parent motif
Reference: not given
Reading: higher = stronger binding
Starting sequence: ANKRD17 docking peptide (human); PSVRRQLFVTVVK
Substitution | normalised enrichment score
L7A | 0.53
F8A | 0.226
K13A | -0.26
V3A | 0.924
R4A | 0.84
R5A L7A | -0.127
R5K | -0.0285
F8L | -0.00898
V11A | 0.594
V9A | 0.248

Sample 2
Target: Ras GTPase-activating protein-binding protein 1, full length (G3BP1, Homo sapiens, UniProt Q13283)
Chain of UniProt Q13283 (whole entry, looked up): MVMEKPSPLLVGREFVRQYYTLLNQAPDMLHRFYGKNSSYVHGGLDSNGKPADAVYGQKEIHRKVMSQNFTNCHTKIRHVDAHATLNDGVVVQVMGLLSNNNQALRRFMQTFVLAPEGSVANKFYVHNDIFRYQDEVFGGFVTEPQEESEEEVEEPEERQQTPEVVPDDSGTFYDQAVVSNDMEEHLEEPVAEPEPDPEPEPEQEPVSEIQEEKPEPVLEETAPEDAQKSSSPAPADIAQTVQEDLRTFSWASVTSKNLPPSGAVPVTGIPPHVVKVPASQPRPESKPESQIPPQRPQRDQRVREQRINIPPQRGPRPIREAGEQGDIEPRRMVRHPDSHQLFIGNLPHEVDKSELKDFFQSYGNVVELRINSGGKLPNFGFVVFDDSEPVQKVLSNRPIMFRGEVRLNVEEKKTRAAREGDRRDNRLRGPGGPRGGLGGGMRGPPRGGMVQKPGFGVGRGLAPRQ
Technique: RNA Bind-n-Seq
Form: RNA
Medium: in vitro
Tested at: 200 nM
Setting: whole 134-nt RNA, ends assumed
Added: 150 mM LiCl
Reference: input library
Reading: higher = stronger binding
Library: 7-deaza-guanosine replaces G
Shared flanks, not repeated: GGGAGUUCUACAGUCCGACGAUC … UGGAAUUCUCGGGUGUCAAGG
Sequence | log2 enrichment
GUCCUGUGCUACACAUCGUAUGUACCGAAUCAAAUUUAAAUUUUUUUAAAUUUUUAAAAAAGUAUUAUGUUACGCCGUUCGGAUCUGCAC | -2.75
UAACUUUAAAGGAGGAUCUGAUGGAUAUGGCAGUGGACGUGGAUUUGGGGAUGGCUAUAAUGGGUAUGGAGGAGGACCUGGAGGUGGCAA | 0.0739
AGUCCUGUGCUACACAUCGUAUGUACCGAAUCGGGGUGGGGUUUUUUUGGGGAGGGGAAAGUAUUAUGUUACGCCGUUCGGAUCUGCACU | 0.788
AAGUCCUGUGCUACACAUCGUAUGUACCGAAUCGGGUGGGAAAAAAAGGGAAAGGGAAAGUAUUAUGUUACGCCGUUCGGAUCUGCACUU | 0.28
GUGCUACACAUCGUAUGUACCGAAUCGGGGUUUUUUUGGGGAAAAAAAGGGGAAAAAAAGGGGAAAGUAUUAUGUUACGCCGUUCGGAUC | -1.1
CUCAAGUCCUGUGCUACACAUCGUAUGUACCGAAUCGGGAAGGGAAGGGGAAGGAAAGUAUUAUGUUACGCCGUUCGGAUCUGCACUUCC | -0.0988
UCCUGUGCUACACAUCGUAUGUACCGAAUCGGCCCCCCGGGGCCCCCCGGGGCCCCCCGGAAAGUAUUAUGUUACGCCGUUCGGAUCUGC | -2.25
AGUCCUGUGCUACACAUCGUAUGUACCGAAUCGGGUUUGGGUUUUUUUGGGUUUGGGAAAGUAUUAUGUUACGCCGUUCGGAUCUGCACU | -0.531
CUCAAGUCCUGUGCUACACAUCGUAUGUACCGAAUCGGUUGGGGUUGGGUUGGAAAGUAUUAUGUUACGCCGUUCGGAUCUGCACUUCCA | 0.476
CCUGUGCUACACAUCGUAUGUACCGAAUCGGAAAAAAAGGAAAAAAAGGGAAAAAAAGGGGAAAGUAUUAUGUUACGCCGUUCGGAUCUG | -0.105
UCCUGUGCUACACAUCGUAUGUACCGAAUCAAACCCCCCCAAAUUUUUAAAUUUUUAAAAAAGUAUUAUGUUACGCCGUUCGGAUCUGCA | 1.46

Sample 3
Target: CREB3L3, bZIP domain (human)
Technique: DHFR protein complementation
Medium: yeast
Setting: single substitutions, most at no-binding floor
Reference: wild-type JUN-FOS pair
Reading: higher = stronger binding
Starting sequence: JUN, bZIP domain (human); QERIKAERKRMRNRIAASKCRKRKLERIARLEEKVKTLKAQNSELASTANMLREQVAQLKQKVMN; partner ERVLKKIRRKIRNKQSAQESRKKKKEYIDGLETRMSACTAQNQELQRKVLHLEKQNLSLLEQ
Substitution | binding fitness [natural log]
Q55N | -1.47
S47C | -1.49
K34I | -1.34
K34P | -1.54
E44P | -1.47
A57P | -1.46
E44K | -1.42
E44G | -1.52
S47A | -1.55
L38Y | -1.29
R53Q | -1.44
A57R | -1.4
M51L | -1.47
A29D | -1.5
E44Y | -1.57
L52H | -1.45

Sample 4
Target: ABI1, truncated, D143A, DHFR fusion (Arabidopsis thaliana)
Technique: DHFR PCA, deep sequencing
Medium: yeast
Setting: methotrexate growth selection, single substitutions
Added: (+)-ABA 0.032 µM
Reference: wild-type fitted maximum
Reading: higher = stronger binding
Starting sequence: PYL1, truncated, DHFR fusion (Arabidopsis thaliana); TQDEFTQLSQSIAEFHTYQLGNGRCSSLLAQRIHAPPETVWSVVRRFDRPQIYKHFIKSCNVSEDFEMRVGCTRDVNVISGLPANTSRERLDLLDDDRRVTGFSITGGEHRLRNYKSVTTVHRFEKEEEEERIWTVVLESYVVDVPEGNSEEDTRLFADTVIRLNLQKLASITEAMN
Substitution | relative binding score
K58A | 9.07%
H16D | 6.96%
L91P | -6.06%
Y115F | 26.5%
L164H | 9.91%
S42H | 0.717%
S87R | 60.1%
M176A | 9.96%
T6K | 42%
P83E | 12.5%
N22F | 14.6%
E129N | 30%
I52W | 11.6%
L82I | 15.9%
A170R | 19.6%
T106Q | 14.4%
F56C | -0.211%
P83T | 18.4%
D153I | -7.03%
T160E | 11%
A158W | 2.99%
H122T | -1.86%
Q31H | 9.65%
V142M | -4.22%
L156M | 22.1%

Sample 5
Target: RNA binding protein fox-1 homolog 2, RRM domain, GST-SBP tag (RBFOX2, Homo sapiens, UniProt O43251-10, residues 100-194)
Technique: RNA Bind-n-Seq
Form: RNA
Medium: in vitro
Tested at: 365 nM
Setting: natural RNA segment, single round, ends assumed
Reference: no-protein control
Reading: higher = stronger binding
Shared flanks, not repeated: GGGAGUUCUACAGUCCGACGAUC … UGGAAUUCUCGGGUGCCAA
Residues (chain): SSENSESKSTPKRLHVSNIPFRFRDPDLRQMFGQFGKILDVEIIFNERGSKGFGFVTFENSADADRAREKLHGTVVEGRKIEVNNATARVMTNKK
Sequence | RBNS enrichment (R)
ACUUAUACCCUUGUAAAACUUGUCAUCUAUGCAAUAAAGCAGUUGAUUUUUCUGUGGAUGCCAUGGAGUUCUGUUUGCCUUUGUUGUUUUUGUUGUUGCUGUUUUAUUUU | 0.487
ACUCCCUAGCGCCCUGGUUGUGGUGACAGUCCAACAAGUUGAUAUUAUAAAGCACUUUAUAACACCCCUCUGUUUGCUAUUAUUUAAGAGCGUGCAAUUGGUGGUUCUGA | 0.549
CAAGGAAAUUUUAAAUUCUGGGACACUGAGUUAGAUGGUAAAUACUGACUUACGAAAGUUGAAUUGGGUGAGGCGGGCAAAUCACCUGAGGUCAGCAGUUUGAGACUAGC | 0.607
UUAAGGAUUUUCUGGGUUCCUGUGACCCUCAGGUUAUUUUAAAGCAAUUGGAAGAGCAUAUGAACACGGGCCAGCUAGCAGGAUUUUCACAUCAAGUUAGAAGUCUGAUU | 0.548
GGCUCAUACUUAUAUAGCACUUACUUUGUUGCAAGUACUGCUGUAAAUAAAUGCUUUAUGCAAACCAUUUGCCUUAUCCUUAUAAGGACCUUAUGGGAGAUGAAUCAUUA | 0.256
UUAGGGGCUUGGGGUUUUCCUGAGGCAAGAGGUCAUGGCUGAAUGGGCCUGUGCCGUGAAUUGAAUGGAACACUACUUUGAGGCCCUUGGAGAGUGACAGCAGCUAUAGG | 0.883
GUACCAAGGAAGGUGACCAGUAUUGUUUACAGAUGAUUUUCUAAGGAAAAGUUGAGGGGGACUUAGGAAUAAUUUCCUUAUAAAAAGGAGCCUUAUUCUGUACCCCACUU | 0.245
CUCUGCCUCAGUGGGCCUGUGGGAGCCUACUGGAGCCCAGCACUUACUCCCCCUGAGCAGCGAGCCUGCGUCUGUCUCAGCUGUCCAGCGCUGAGGGCCAGGGUCUUGUG | 0.67
UACUUAUAUAUGAUGUUUCCAUAUAUGUGCUGUGUGUUUAAGUUUUGUAUCAUCCAGACUGAUACCAAAUUUUAAGGUUUUUUUUUUUUUAACAAAGACAAUACACACAU | 0.568
CCUGUGUAACUCUGCUCUGAGGAACAGGUGUUUCCCAACUGGAUUCGCCUUUUCUAGUCCAGUAGAGUUGGCACCAAUCCAGCCUUAAAUGGUCCUGGGGAUGCCACCUG | 0.18
CCCAGCUGCACACACACACCAUGCUCUCGCCCUGCUGUAACCUCUGUCUUGGCAGGGCUGUCCCCUCUUGCUUCUCCUUGCAUGAGCUGGAGGGCCUGUGUGAGUUACGC | 0.706
CCAUCUAGUUGGUUUGGGGACCCUGGUGCAUGCUAGUGGGCAUGGGAUCAGCCAAGCUUCGUUCCAUCUUUUCCUAAAGGUCAGAGCUGCAGCCUAGGGGGCACUGCCCU | 3.76

Some of these lines once more (sample 3):
Substitution | binding fitness [natural log]
S47A | -1.55
L38Y | -1.29
R53Q | -1.44
A57R | -1.4
M51L | -1.47
